Literature values, collected from citations in different studies.
Several values in a cell are separate wells, animals, samples, runs or records. ± marks the error that the study gave. Ends that are not written are not given here. [ ]: non-standard residue; d: D form.
Grin2a with GluN1a subunit: Glutamate receptor ionotropic, NMDA 2A, with GluN1a subunit (Grin2a, Rattus norvegicus, UniProt Q00959)
Chain of UniProt P30536 (whole entry, looked up): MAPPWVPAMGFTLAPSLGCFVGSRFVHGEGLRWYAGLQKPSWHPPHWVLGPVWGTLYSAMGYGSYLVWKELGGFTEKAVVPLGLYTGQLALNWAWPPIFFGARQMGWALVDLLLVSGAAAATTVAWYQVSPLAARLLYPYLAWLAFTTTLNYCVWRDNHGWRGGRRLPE
Chain of UniProt P0C061 (whole entry, looked up): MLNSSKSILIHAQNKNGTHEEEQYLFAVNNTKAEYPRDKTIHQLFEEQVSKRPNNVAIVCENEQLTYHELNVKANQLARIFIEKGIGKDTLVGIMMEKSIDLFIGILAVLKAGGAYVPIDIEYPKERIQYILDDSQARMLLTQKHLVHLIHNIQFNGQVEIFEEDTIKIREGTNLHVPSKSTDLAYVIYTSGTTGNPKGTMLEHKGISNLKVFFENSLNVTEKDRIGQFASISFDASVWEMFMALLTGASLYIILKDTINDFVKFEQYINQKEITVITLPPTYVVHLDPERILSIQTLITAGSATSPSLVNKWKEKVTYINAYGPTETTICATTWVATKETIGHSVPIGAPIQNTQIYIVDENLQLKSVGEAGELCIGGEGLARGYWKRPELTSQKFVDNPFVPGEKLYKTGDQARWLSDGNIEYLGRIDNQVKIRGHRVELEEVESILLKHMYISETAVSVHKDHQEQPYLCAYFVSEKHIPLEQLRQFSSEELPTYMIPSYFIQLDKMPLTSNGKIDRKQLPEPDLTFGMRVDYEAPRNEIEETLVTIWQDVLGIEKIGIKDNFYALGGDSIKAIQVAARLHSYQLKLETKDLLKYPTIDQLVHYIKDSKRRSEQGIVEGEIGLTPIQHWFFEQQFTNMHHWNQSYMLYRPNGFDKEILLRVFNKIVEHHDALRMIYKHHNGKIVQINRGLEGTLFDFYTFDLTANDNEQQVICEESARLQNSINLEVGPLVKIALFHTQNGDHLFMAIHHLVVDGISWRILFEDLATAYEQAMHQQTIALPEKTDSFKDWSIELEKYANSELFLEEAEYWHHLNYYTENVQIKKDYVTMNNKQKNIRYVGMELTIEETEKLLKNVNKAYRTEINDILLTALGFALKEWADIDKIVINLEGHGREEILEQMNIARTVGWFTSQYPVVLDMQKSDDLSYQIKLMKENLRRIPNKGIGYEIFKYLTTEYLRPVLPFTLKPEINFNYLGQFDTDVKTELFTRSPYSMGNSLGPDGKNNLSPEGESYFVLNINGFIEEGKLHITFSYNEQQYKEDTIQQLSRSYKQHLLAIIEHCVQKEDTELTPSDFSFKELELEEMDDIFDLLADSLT
Chain of UniProt P13569 (whole entry, looked up): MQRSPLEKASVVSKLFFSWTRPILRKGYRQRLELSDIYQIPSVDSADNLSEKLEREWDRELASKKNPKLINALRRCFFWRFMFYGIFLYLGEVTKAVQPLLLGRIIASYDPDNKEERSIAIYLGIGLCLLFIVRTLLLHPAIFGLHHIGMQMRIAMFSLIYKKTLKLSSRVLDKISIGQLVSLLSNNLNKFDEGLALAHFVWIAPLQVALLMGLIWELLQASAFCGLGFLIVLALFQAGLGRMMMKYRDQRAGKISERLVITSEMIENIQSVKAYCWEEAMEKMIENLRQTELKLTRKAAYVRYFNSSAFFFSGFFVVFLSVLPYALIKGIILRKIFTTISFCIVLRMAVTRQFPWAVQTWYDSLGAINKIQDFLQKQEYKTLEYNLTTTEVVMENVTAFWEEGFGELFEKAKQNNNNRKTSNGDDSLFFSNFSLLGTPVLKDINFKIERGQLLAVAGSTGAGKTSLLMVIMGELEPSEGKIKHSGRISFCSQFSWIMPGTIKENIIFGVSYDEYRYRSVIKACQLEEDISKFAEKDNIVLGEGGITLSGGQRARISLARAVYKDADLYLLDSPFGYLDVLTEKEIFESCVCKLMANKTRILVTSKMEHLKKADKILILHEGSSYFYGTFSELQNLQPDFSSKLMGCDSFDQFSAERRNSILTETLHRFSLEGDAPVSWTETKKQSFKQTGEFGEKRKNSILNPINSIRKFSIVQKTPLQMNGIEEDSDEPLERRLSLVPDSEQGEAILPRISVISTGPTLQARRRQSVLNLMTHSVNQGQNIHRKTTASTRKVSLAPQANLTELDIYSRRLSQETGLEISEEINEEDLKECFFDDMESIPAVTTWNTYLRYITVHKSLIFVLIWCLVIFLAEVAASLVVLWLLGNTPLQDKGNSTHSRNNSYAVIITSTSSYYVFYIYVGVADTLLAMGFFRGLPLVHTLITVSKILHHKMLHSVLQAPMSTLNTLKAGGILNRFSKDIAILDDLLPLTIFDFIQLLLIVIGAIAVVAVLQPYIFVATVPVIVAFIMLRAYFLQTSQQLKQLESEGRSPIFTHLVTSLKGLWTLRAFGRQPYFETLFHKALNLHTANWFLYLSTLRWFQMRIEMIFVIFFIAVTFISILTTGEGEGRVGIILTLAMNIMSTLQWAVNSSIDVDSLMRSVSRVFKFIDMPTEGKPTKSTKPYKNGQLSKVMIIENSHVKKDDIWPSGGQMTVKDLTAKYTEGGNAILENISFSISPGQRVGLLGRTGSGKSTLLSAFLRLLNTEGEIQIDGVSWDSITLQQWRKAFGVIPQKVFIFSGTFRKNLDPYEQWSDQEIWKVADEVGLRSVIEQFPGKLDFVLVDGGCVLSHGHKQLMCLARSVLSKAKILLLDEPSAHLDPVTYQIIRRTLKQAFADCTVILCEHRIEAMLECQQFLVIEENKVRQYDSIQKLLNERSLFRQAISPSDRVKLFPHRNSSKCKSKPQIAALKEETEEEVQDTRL
Chain of UniProt P11712 (whole entry, looked up): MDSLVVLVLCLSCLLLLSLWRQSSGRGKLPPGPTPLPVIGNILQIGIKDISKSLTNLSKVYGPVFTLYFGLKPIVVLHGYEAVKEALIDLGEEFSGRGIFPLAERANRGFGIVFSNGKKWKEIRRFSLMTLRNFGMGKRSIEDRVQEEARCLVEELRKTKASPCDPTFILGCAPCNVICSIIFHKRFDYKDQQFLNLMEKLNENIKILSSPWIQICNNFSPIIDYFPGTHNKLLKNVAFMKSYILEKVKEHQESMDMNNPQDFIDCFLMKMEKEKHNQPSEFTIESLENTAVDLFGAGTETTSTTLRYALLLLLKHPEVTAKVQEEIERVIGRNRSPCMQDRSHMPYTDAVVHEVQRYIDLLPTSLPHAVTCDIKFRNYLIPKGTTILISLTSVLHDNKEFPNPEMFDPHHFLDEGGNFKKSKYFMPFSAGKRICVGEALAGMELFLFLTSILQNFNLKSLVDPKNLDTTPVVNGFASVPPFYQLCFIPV
Chain of UniProt Q57T48 (whole entry, looked up): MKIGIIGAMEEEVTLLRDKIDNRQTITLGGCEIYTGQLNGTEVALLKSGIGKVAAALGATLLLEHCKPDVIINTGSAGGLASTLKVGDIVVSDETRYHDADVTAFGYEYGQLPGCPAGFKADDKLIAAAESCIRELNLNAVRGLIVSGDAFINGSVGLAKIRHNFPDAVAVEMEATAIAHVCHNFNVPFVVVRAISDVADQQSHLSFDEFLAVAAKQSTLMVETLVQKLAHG

Molecule | target or system | test | system | setting | measurement | value
C=CCN1CCC[C@H]1CNC(=O)c1cc(CCCF)cc(OC)c1OC | dopamine D2 receptor, rat | binding | rat brain homogenate | together with: [3H]spiperone | Ki | 0.05 nM
CSC[C@H]1CN(Cc2c[nH]c3c(N)ncnc23)C[C@@H]1O | Aminodeoxyfutalosine nucleosidase (Helicobacter pylori, UniProt Q9ZMY2) | inhibitor | – | – | Ki | 0.086 nM
OCC1CC(n2cnc3c(SCc4cccc(C(F)(F)F)c4)ncnc32)C(O)C1O (stereo not shown) | adenosine kinase (Toxoplasma gondii) | – | – | apparent Ki equals apparent Km | Ki | 22000 ± 1300 nM
COc1ccccc1CN(C(C)=O)c1cnccc1Oc1ccccc1 | Translocator protein (TSPO, Homo sapiens, UniProt P30536) | – | human brain tissue | mixed-affinity binders, low-affinity site | Ki | 313 nM and ~300 nM
[Mg+2] | CNGA1 channel wild type | inhibitor | – | – | Ki | 20000 nM
Cc1ccccc1-c1cc(N2CCN(C)CC2)ncc1N(C)C(=O)C(C)(C)c1cc(C(F)(F)F)cc(C(F)(F)F)c1 | – | – | patients, plasma | oral, dose not given, netupitant-palonosetron combination, together with: etoposide 35 to 100 mg/m^2 IV | CL/F | 20.8 L/h
O=C(Nc1ccc2ccccc2c1)c1cc(-c2ccncc2)nc2ccccc12 | Cytochrome P450 2C9 (CYP2C9, Homo sapiens, UniProt P11712) | enzyme activity, inhibitor | – | together with: diclofenac at saturating concentration | Ki | 30 nM
O=C(O)c1ccc(/C=C2\SC(=S)N(c3cccc(C(F)(F)F)c3)C2=O)cc1 | Cystic fibrosis transmembrane conductance regulator (CFTR, Homo sapiens, UniProt P13569) | channel function | intact epithelial cells | – | Ki | 2000 to 5000 nM
CC[N+](CC)(CC)CC | Loligo opalescens | potassium current block | squid axon | internal application | Kd | 1000 µM
Nc1nc2c(ncn2[C@@H]2O[C@H](CO)[C@@H](O)[C@H]2O)c(=O)[nH]1 | Equilibrative nucleoside transporter 2 (Homo sapiens, UniProt Q14542) | – | ENT1 knockout | – | Ki | 160000 ± 52000 nM
Nc1ncnc2c1ncn2[C@@H]1O[C@H](COP(=O)(O)OP(=O)(O)OP(=O)(O)O)[C@@H](O)[C@H]1O | calf intestinal alkaline phosphatase | substrate inhibition, molybdenum blue | – | – | Ki | 19000 nM
Ac-W[dPhe(4-I)]RW-NH2 (N-acetyl, D-4-iodo-Phe2, C-amide; dPhe(4-I) = N[C@H](Cc1ccc(I)cc1)C(=O)O) | mouse MC3R | antagonist, Schild analysis | HEK293 | – | Ki | 3700 nM
OCC1CC(n2cnc3c(SCc4ccc(Cl)cc4Cl)ncnc32)C(O)C1O (stereo not shown) | adenosine kinase (Toxoplasma gondii) | – | – | apparent Ki equals apparent Km | Ki | 61000 ± 7900 nM
O=P(O)(O)O[C@@H]1[C@H](O)[C@H](O)[C@@H](OP(=O)(O)O)[C@H](OP(=O)(O)O)[C@H]1O | IP3R1 N-terminal domain residues 1-604 | binding, radioligand competition | – | pH 8.3, together with: [3H]IP3 | Kd | 0.0017 ± 0.0002 µM
GIINTLQKYYCRVRGGRCAVLSCLPKEEQIGKCSTRGRKCCRRKK (β-defensin 3 (human); ends and bridges not checked; cysteine pairing not given here; sequence looked up) | MC1R | – | peptide | – | Ki | 13.8 nM
CO[C@H]1/C=C/O[C@@]2(C)Oc3c(C)c(O)c4c(O)c(c(/C=N/N5CCN(C)CC5)c(O)c4c3C2=O)NC(=O)/C(C)=C\C=C\[C@H](C)[C@H](O)[C@@H](C)[C@@H](O)[C@@H](C)[C@H](OC(C)=O)[C@@H]1C | Solute carrier organic anion transporter family member 1B3 (SLCO1B3, Homo sapiens, UniProt Q9NPD5) | – | – | – | Ki | 1450 nM
CO[C@@H]1[C@@H]2OP(=O)(O)OC[C@H]2O[C@H]1n1c(Sc2ccc(Cl)cc2)nc2c(N)ncnc21 | PDE4D | cyclic nucleotide hydrolysis, substrate or inhibitor, isothermal titration calorimetry | – | – | Km or Ki | 895 µM
Cc1cccc(CSc2ncnc3c2ncn3C2CC(CO)C(O)C2O)c1 (stereo not shown) | adenosine kinase (Toxoplasma gondii) | – | – | apparent Ki equals apparent Km | Ki | 27000 ± 4200 nM
CNC(=O)c1cnn(-c2nc(N)c3ncn([C@@H]4O[C@H](CO)[C@@H](O)[C@H]4O)c3n2)c1 | adenosine receptor A1 (human) | binding | – | – | Ki | > 16000 nM

Molecule | target or system | test | system | setting | measurement | value
O=C(Nc1ncnc2c1ncn2[C@@H]1O[C@@H]2COP(=O)(O)OC2C1O)c1ccccc1 (stereo in doubt) | PDE2A | cyclic nucleotide hydrolysis, substrate or inhibitor, isothermal titration calorimetry | – | – | Km or Ki | 240 µM
OCCN(CCO)c1nc(N2CCCCC2)c2nc(N(CCO)CCO)nc(N3CCCCC3)c2n1 | TSPO | – | – | together with: [3H]Ro5-4864 | Ki | 156 nM
O=C(O)c1cccc([C@H]2CCN[C@@H]2C(=O)O)c1 | Glutamate receptor ionotropic, kainate 2 (Grik2, Rattus norvegicus, UniProt P42260) | binding, [3H]kainate displacement | – | cloned homomeric receptor | Ki | > 100000 nM
Nc1ncnc2c1ncn2[C@@H]1O[C@H](COS(=O)(=O)NC(=O)[C@@H](N)Cc2ccccc2)[C@@H](O)[C@H]1O | grsA, holo form (Aneurinibacillus migulanus, UniProt P0C061) | enzyme activity, tight-binding inhibitor, hydroxamate-MesG coupled | – | – | Ki | 1.2 ± 0.14 nM
O=C(O[C@@H]1Cc2c(O)cc(O)cc2O[C@@H]1c1cc(O)c(O)c(O)c1)c1cc(O)c(O)c(O)c1 | intestinal UDP-glucuronosyltransferase | reversible inhibitor | – | together with: raloxifene substrate | Ki | ≤ 2000 nM and ~2000 nM
CNC(=O)[C@@]12C[C@@H]1[C@@H](n1cnc3c(NC4CCCC4)nc(Cl)nc31)[C@H](O)[C@@H]2O | Adenosine receptor A2a (ADORA2A, Homo sapiens, UniProt P29274) | binding | HEK293 expressing target | – | Ki | 3250 ± 300 nM
CC1CN(c2ccc3ccccc3n2)CCN1CCCN1C(=O)c2ccccc2C1=O (stereo not shown) | SERT (human) | binding | human tissue | together with: [3H]5-HT | Ki | 80 nM
OCC1CC(n2cnc3c(SCc4ccc(Br)cc4)ncnc32)C(O)C1O (stereo not shown) | adenosine kinase (Toxoplasma gondii) | – | – | apparent Ki equals apparent Km | Ki | 21000 ± 3700 nM
O=C(c1ccc(F)cc1)C1CCN(C2Cc3c(cccc3OCCF)CC2O)CC1 (single isomer, unassigned; (-)) [fluorine-18 labelled] | Vesicular acetylcholine transporter (SLC18A3, Homo sapiens, UniProt Q16572) | binding | – | together with: [3H]vesamicol | Ki | 0.59 nM
CC(=O)N[C@@H]1[C@@H](O)[C@H](O)[C@@H](CO)O[C@@H]1O | hexose transporter | – | Trypanosoma cruzi, epimastigote | together with: radiolabeled D-glucose uptake | Ki | 156000 nM
O=C(O)[C@H]1NCCN(S(=O)(=O)c2ccc(-c3ccccc3)cc2)[C@H]1C(=O)O | Grin2a with GluN1a subunit | ion current, antagonist | Xenopus oocytes expressing GluN1/GluN2A, rat | – | Ki | 13600 ± 1800 nM
O=C1c2cccc3c2[C@H](CCC3)CN1[C@@H]1CN2CCC1CC2 | – | – | healthy volunteers, plasma | oral, dose not given, netupitant-palonosetron alone, ketoconazole study | CL/F | 14.2 L/h
CSC[C@H]1CN(Cc2c[nH]c3c(N)ncnc23)C[C@@H]1O | 5'-methylthioadenosine/S-adenosylhomocysteine nucleosidase (mtnN, Salmonella choleraesuis, UniProt Q57T48) | inhibitor | – | – | Ki | 0.002 nM
O=C(O)[C@H]1NCCN(C(=O)c2ccc3c(c2)CCc2cc(Br)ccc2-3)[C@H]1C(=O)O | Grin2a with GluN1a subunit | ion current, antagonist | Xenopus oocytes expressing GluN1/GluN2A, rat | – | Ki | 3900 ± 200 nM
CC(C)C[C@H](CC(=O)NO)C(=O)N[C@H](C(=O)N[C@@H](C)C(=O)NCCN)C(C)(C)C | ADAM17 | inhibitor | – | literature value | Ki | 120 ± 30 nM
MANT-GTP | Adcy2/ADCY5, C1/C2 domains (Rattus norvegicus, UniProt P26769+P30803) | enzyme activity, inhibitor | – | together with: 10 mM MnCl2 and 100 µM forskolin | Ki | 130 ± 20 nM
O=C(O)[C@H]1NCCN(C(=O)c2ccc3c(ccc4cc(Br)ccc43)c2)[C@H]1C(=O)O | Glutamate receptor ionotropic, NMDA 2B, with GluN1a (Grin2b, Rattus norvegicus, UniProt Q00960) | ion current, antagonist | Xenopus oocytes expressing GluN1/GluN2B, rat | – | Ki | 250 ± 20 nM
OCC1CC(n2cnc3c(SCc4ccc(F)cc4)ncnc32)C(O)C1O (stereo not shown) | adenosine kinase (Toxoplasma gondii) | – | – | apparent Ki equals apparent Km | Ki | 32000 ± 8300 nM

Excerpt of the above:
Molecule | target or system | test | system | setting | measurement | value
O=C(O)[C@H]1NCCN(S(=O)(=O)c2ccc(-c3ccccc3)cc2)[C@H]1C(=O)O | Grin2a with GluN1a subunit | ion current, antagonist | Xenopus oocytes expressing GluN1/GluN2A, rat | – | Ki | 13600 ± 1800 nM
CC(=O)N[C@@H]1[C@@H](O)[C@H](O)[C@@H](CO)O[C@@H]1O | hexose transporter | – | Trypanosoma cruzi, epimastigote | together with: radiolabeled D-glucose uptake | Ki | 156000 nM
COc1ccccc1CN(C(C)=O)c1cnccc1Oc1ccccc1 | Translocator protein (TSPO, Homo sapiens, UniProt P30536) | – | human brain tissue | mixed-affinity binders, low-affinity site | Ki | 313 nM and ~300 nM
C=CCN1CCC[C@H]1CNC(=O)c1cc(CCCF)cc(OC)c1OC | dopamine D2 receptor, rat | binding | rat brain homogenate | together with: [3H]spiperone | Ki | 0.05 nM
MANT-GTP | Adcy2/ADCY5, C1/C2 domains (Rattus norvegicus, UniProt P26769+P30803) | enzyme activity, inhibitor | – | together with: 10 mM MnCl2 and 100 µM forskolin | Ki | 130 ± 20 nM
